Assay results from different studies.
Protocols differ between the studies behind these lines. Several values in a cell are separate wells, animals, samples, runs or records. ± marks the error that the study gave.
CNR1: Cannabinoid receptor 1 (CNR1, Homo sapiens, UniProt P21554)

| Compound | target | test | test system | setting | scale | quantity | result |
| --- | --- | --- | --- | --- | --- | --- | --- |
| COC(=O)[C@@H](NC(=O)c1nn(Cc2ccc(F)cc2)c2cc(OCCCCN)ccc12)C(C)(C)C | CNR1 | β-arrestin-2 recruitment, agonist, BRET |  |  |  | maximal efficacy | 55% |
| CCCCCn1cc(C(=O)c2ccc3ccccc3c2)c2ccccc21 | CNR1 | agonist, BRET |  |  | baseline: Gαi1 over β-arrestin 2, reference agonist | bias factor (ΔΔlog(Emax/EC50)) | 0.36 |
| Cc1cc(-c2ccc3ccccc3c2)nnc1NCCN1CCN(C)CC1 | CNR1 | antagonist |  | 10000 nM | baseline: control | activity | 5% |
| CCCCCn1ccc(C(=O)NC(C)(C)c2ccc(C(N)=O)cc2)n1 | CNR1 | agonist, calcium mobilization | CHO | concentration not given |  | activity | inactive |
| Cc1ccc2c(C(C[N+](=O)[O-])c3cccs3)c(-c3ccccc3)[nH]c2c1 (stereo not shown) | Cannabinoid receptor 1 (CNR1, Homo sapiens, UniProt P21554, I245L) | Gαi1-γ2 dissociation, BRET |  |  |  | Emax | 110 ± 5.57% |
| CN[C@@H]1[C@H](O)[C@H](NC)[C@H]2O[C@]3(O)[C@H](O[C@@H]2[C@H]1O)O[C@H](C)C[C@H]3NC(=O)Cc1ccc(Cl)cn1 | CNR1 | ligand displacement, radioligand |  | 10 µM |  | inhibition | 8% |
| CC(=O)Nc1ccc(C(C)(C)NC(=O)c2ccn(Cc3ccc(F)cc3)n2)c(Cl)c1 | CNR1 | calcium signal, agonist, fluorescence |  |  |  | Emax | 27% |
| N[C@H](C(=O)N1CCCC1)C1CCN(c2nccc3c(-c4ncc(Cl)cc4Cl)cccc23)CC1 | CNR1 | functional response, antagonist |  | 10 µM |  | inhibition | 2% |
| CCN(CC)CCOc1ccc(-c2nnn(Cc3ccc(OC)cc3)c2N)cc1 | CNR1 | radioligand binding | CHO-K1 | 10 µM, safety profiling |  | inhibition | 1.75% |
| CCOC(=O)[C@](CC)(CCCSCCOCCOCCNC(=O)c1ccc(-c2c3ccc(=N)c(S(=O)(=O)O)c-3oc3c(S(=O)(=O)O)c(N)ccc23)c(C(=O)O)c1)NC(=O)c1ccc(C2CC2)c(Cc2ccc(F)cc2)n1 | CNR1 | ligand displacement, radioligand |  | 10 µM |  | inhibition | 41% |
| Cc1sc2c(c1C)C(c1ccc(Cl)cc1)=NC(CC(=O)OC(C)(C)C)c1nnc(C)n1-2 (stereo not shown) | CNR1 | ligand displacement, radioligand |  | 1 µM |  | inhibition | 0% |
| CC(=O)Nc1ccc(C(C)(C)NC(=O)c2ccn(Cc3ccc(Cl)cc3)n2)c(Cl)c1 | CNR1 | calcium signal, agonist, fluorescence |  |  |  | Emax | 13% |
| Cc1cc(Nc2nc(C[C@@]3(C(=O)O)CCN(Cc4cccc(Cl)c4F)[C@H](C)C3)cc(C)c2F)[nH]n1 | CNR1 | agonist |  | 10 µM |  | activation | -2.41% |
| C/C(=N\OCCCN1CCCCC1)c1ccc(C(F)(F)F)cc1 | CNR1 | antagonist, cAMP |  | 10 µM |  | inhibition | 27.1% |
| COC(=O)[C@@H](NC(=O)c1nn(Cc2ccc(F)cc2)c2cc(OCCCCNC(N)=O)ccc12)C(C)(C)C | Cannabinoid receptor 1, with Gi1 (CNR1, Homo sapiens, UniProt P21554) | GTP turnover, agonist, measured: Gi1 Gα subtype |  |  |  | maximal efficacy | 89% |
| CCCCCn1cc(C(=O)c2ccc3c(c2)CC(C)(C)C3)c2ccccc21 | Cannabinoid receptor 1 (CNR1, Homo sapiens, UniProt P21554, F170A) | Gαi1 engagement, agonist, BRET |  |  | baseline: reference agonist at wild-type CB1 | Emax | 4 ± 1.4% |
| CCCCCn1ccc(C(=O)NC(C)(C)c2ccccc2Cl)n1 | CNR1 | calcium signal, agonist, fluorescence |  |  |  | Emax | 79% |
| COc1ccccc1C(C[N+](=O)[O-])c1c(-c2ccccc2)[nH]c2ccccc12 (stereo not shown) | Cannabinoid receptor 1, with Gi2 (CNR1, Homo sapiens, UniProt P21554) | Gi2 dissociation, agonist, BRET |  |  |  | Emax | 39.4 ± 4.14% |
| CCCCCn1ccc(C(=O)NC(C)(C)c2ccc(C#N)cc2)n1 | CNR1 | calcium signal, agonist, fluorescence |  |  |  | Emax | 56% |
| COc1ccc(F)cc1S(=O)(=O)Nc1cnc2c(c1)C(=O)NCCO2 | CNR1 | ligand displacement, radioligand |  | 10 µM |  | inhibition | 7% |
| CCCCCn1ccc(C(=O)NC(C)(C)c2ccc(-c3nn[nH]n3)cc2)n1 | CNR1 | agonist, calcium mobilization | CHO | concentration not given |  | activity | inactive |
| O=C(O)c1ccc(-c2nc(-c3ccccc3Cl)c3sccn23)cc1 | CNR1 | radioligand binding, safety screen panel |  | 10 µM | baseline: control | specific binding | 99.8% and 97.3% |

For quick reference, copied from above:
| Compound | target | test | test system | setting | scale | quantity | result |
| --- | --- | --- | --- | --- | --- | --- | --- |
| COc1ccccc1C(C[N+](=O)[O-])c1c(-c2ccccc2)[nH]c2ccccc12 (stereo not shown) | Cannabinoid receptor 1, with Gi2 (CNR1, Homo sapiens, UniProt P21554) | Gi2 dissociation, agonist, BRET |  |  |  | Emax | 39.4 ± 4.14% |
| CCOC(=O)[C@](CC)(CCCSCCOCCOCCNC(=O)c1ccc(-c2c3ccc(=N)c(S(=O)(=O)O)c-3oc3c(S(=O)(=O)O)c(N)ccc23)c(C(=O)O)c1)NC(=O)c1ccc(C2CC2)c(Cc2ccc(F)cc2)n1 | CNR1 | ligand displacement, radioligand |  | 10 µM |  | inhibition | 41% |
